Published values gathered from unrelated publications.
Parts stem from different laboratories: compare values within a part only.

Series 1
Target: RING finger protein unkempt homolog, zinc fingers 1-6, GST-SBP tag (UNK, Homo sapiens, UniProt Q9C0B0, residues 30-357)
Sequence of UniProt Q9C0B0 (30-357, looked up): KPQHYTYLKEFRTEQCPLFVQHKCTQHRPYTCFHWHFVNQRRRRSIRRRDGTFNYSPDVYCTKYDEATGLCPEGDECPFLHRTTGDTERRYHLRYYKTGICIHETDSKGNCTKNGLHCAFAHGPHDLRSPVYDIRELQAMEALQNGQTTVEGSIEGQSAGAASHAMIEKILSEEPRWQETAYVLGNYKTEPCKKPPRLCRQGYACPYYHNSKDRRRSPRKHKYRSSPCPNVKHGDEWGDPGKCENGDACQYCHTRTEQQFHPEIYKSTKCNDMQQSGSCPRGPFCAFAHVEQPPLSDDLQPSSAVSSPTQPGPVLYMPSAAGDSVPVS
Method: RNA Bind-n-Seq
Molecule type: RNA
Matrix: in vitro
Concentration: not given
Setting: RNA with constant flanks, human-mouse chimeric sites, ends assumed
Reference: input RNA pool
Reading: higher = stronger binding
Endpoint: bound/input enrichment
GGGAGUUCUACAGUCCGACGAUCAAGGUGAUGACUAUGUUUGUCCAACGACAGGUGUUUGCGGAGAGCAAAGAUGAGAUUGCGUUAGUCCUCUAUGGCACAGAUGGCACUGAUAAUGCCCUUGCUGGCAAGGACCAGUAUCAGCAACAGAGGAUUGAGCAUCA: 0.206 ratio
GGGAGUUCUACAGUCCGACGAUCUAAAUCCUGUGCCAGCACUUCGCUCAUAAAGUUUUAAAUUCUGGACCAAUAGUGUUUGUUUCCUGAUUAUUGUAUCCAAUACUUUGCGUACUAUGUGACUCACUCUUACUGAUAAUAAAACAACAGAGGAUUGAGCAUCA: 0.728 ratio
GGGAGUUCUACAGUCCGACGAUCAUGGAGAAGGAUUCUCUGCCCCGCUUUGUGCGCUCUGAGUUUUAUCAGGAGCUAAUCAAGUAGUCAUCUGGUCAGGCUUCCAAAAGUUGCCCUGUGAGUUGAGUUACAUCCUUUGUAGCACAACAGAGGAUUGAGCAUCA: 0.166 ratio
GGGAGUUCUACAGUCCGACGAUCAGAAUCUUGGGACUGUUUUGCUUGAUUGGUCAUUGAUAGCUUAACAAACAUGGAGAUAAGAUUAGAAAUCUUGACAUCAACAGGUAUUAAGCAGAAAAAACCCUGGCCACGUGUCUCCUGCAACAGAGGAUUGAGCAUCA: 0.157 ratio
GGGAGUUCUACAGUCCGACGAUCCAGUCCCCGUGUCCCAGUGCAGGACGAUGUGAACAAAAACUCAAAGCGGCCCUUUCUUUGUAGUUCUUGAUUCUCGAAAUGUGCUAUUAUUGUUUGUCUUUUUUUUUUUUUUUUUAAAGACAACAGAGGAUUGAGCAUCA: 2.45 ratio
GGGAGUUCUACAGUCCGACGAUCUAUAAUAAUCAUGAAAUUCGUUCUGGAAAGCACAUUGGUGUCUGCAUCUCAGUUGCCAACAAUAGGCUUUUUGUGGGCUCGAUUCCUAAGAGUAAAACCAAGGAACAGAUUCUUGAGGAACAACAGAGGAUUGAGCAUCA: 0.602 ratio
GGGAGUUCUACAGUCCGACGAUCCUGUGACCACAAGAUCCUACCUGAGUGUUCAGAUGGGUUGACUCCCUCUCCUUGCCUGAACCCCCCCCCACUGCCCCCCCAUCCCCCAGUGUCGGCUAUUCUCUGGUCUCUGCACGGUUCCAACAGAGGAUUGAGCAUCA: 1.32 ratio
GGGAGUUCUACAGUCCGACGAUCGGCUGCUGGUGACUGUCCUGGAGUGGCUGGAGUUCCCGCCGGAGCGCGCGCAGGUUAAUUUUAGAAAAUGCCAAGUAGGAAGUUUGUUGAGGGUGAAGUGGUCAGAGGCCGAUGGCCUGGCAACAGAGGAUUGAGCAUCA: 4.73 ratio
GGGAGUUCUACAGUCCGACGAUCGGGGAGAAACCUUACGAGUGUGUGCAGUGUGGGAAAUCCUACAGUCAGAGCUCAAACCUCUUCAGACAUCAGAGAAGACACAAUGCAGAAAAACUUUUGAAUGUUGUGAAGGUUUAAGAACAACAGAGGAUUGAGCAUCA: 0.217 ratio
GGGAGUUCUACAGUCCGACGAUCGAAACAUUUAAAUUUAAAGAAGCUGUUGUUUUAGGGAGUACGGACUUUCUAGAAGAUGAUAUAGAAAAAAUUGUAGAAGAACUGGGGAAAGAGUAUAAGGGCAACGCCUACCAUCUGAUGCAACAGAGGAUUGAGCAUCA: 3.42 ratio
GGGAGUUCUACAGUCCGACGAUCCUCAGAGACGUGGCAUAUCAGUAUGUGAAAAAGGGGGCUCGUAUAUUUGUGGAAGGGAAAAUAGACUAUGGCGAGUACAUGGAUAAAAACAAUGUGAGGCGGCAAGCAACAACAAUCAUACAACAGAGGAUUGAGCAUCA: 0.525 ratio

Series 2
Target: Interferon regulatory factor 5, full length, phosphomimetic (IRF5, Homo sapiens, UniProt Q13568-2, residues 1-514, S451D/S453D/S456D/S462D)
Method: protein-binding microarray
Molecule type: double-stranded DNA, one strand shown
Matrix: in vitro
Concentration: 940 nM top
Setting: 60-bp whole probe
Added: salmon DNA 0.4 mg/ml
Reference: random background probes
Reading: higher = stronger binding
Endpoint: fitted relative affinity
All sequences stand within: GCCTAGCAC … GTCTTGATTCGCTTGACGCTGCTG
TTAGGACTGGGATATCGGTTAGTGCTA: -0.194 z-score
TCACCTCTAGACTCTAAAACTGTGCTA: 0.578 z-score
GACGGCTTCGACTTTCGGGACGTGCTA: 0.412 z-score
TGTACTCTCTACATGGGCTTGTGCTAG: 1.09 z-score
GACGGACTGGGGACTGGGCACGTGCTA: -0.801 z-score
GACGGTTTCGACTATCGGGAAGTGCTA: 8.33 z-score
GACGGACTGCTTTTCCTGTCGTGCTAG: 0.477 z-score
GACGGTCACCTACTGCTGACGTGCTAG: -0.597 z-score
GTAGGTATCCTTATCCTTTAGTGCTAG: 0.273 z-score
TTAGGTTTGGGGTTTCGGTTAGTGCTA: 5.8 z-score
GGGCCACAAAGCAATAAGAAGTGCTAG: -0.315 z-score
GACGGAGTGGACTTTCGGGACGTGCTA: 0.537 z-score
TTAGGTATCGTGTATCGGTTAGTGCTA: 3.44 z-score
TTAGAACTAGGGTATCGATTAGTGCTA: 1.38 z-score
CTTGGCAAGATGAGGAAGATGTGCTAG: -0.615 z-score
TAGAAATTTTTTTTCTAACTGTGCTAG: -0.105 z-score
TTAGCTATCAGTTTCGATTAGTGCTAG: 7.61 z-score
GACTGTCTCCTTTTCCTGACGTGCTAG: 1.1 z-score
TTAGAACTGGGCTATCGATTAGTGCTA: -0.552 z-score
GACGCACTGGGGTATCGAGACGTGCTA: 1.05 z-score
GACGGTTTCTGGTATCGGGACGTGCTA: 4.45 z-score
TCATGACTCCCTCTCTGACTGTGCTAG: 0.456 z-score
GTCGATTCCAGTTTCGAGACGTGCTAG: 6.37 z-score
TCATTTTTCATTTTTTTACTGTGCTAG: 1.42 z-score
TCATTTATGCACTCTCTAACTGTGCTA: 0.617 z-score

Series 3
Target: Histone acetyltransferase KAT6A, both winged helices, GST fusion (KAT6A, Homo sapiens, UniProt Q92794, residues 1-181)
Method: protein binding microarray
Molecule type: double-stranded DNA, one strand shown
Matrix: in vitro
Concentration: not given
Setting: 8-mer, flanks averaged, mean of 2 arrays, mostly near background
Reference: not given
Reading: higher = stronger binding
Endpoint: E-score
Construct (chain): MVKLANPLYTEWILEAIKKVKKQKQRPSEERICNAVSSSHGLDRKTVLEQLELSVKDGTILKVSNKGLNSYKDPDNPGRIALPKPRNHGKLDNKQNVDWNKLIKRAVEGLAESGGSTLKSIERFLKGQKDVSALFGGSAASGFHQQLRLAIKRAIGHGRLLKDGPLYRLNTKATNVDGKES
CCCAATAA: -0.165
AATTGGTG: -0.22
ATCACACG: 0.19
GGTATTTA: -0.00581
AAGGTTGT: -0.0503
GGTGCAAA: -0.0818
AGGCTGAT: -0.201
AGTCCGTA: 0.231
TAGCCCGA: 0.0879
GCCGGAGC: 0.249
AAACACTT: -0.12
CCATGTAC: -0.0842
AAAGGCGC: 0.266
TCGTGTAA: 0.00791
CTAGGTTA: -0.119
ATAACGGG: 0.149
ATTTCAAA: -0.123
CAAGCAAA: -0.246

Series 4
Target: Prothrombin, mature alpha-thrombin (F2, Homo sapiens, UniProt P00734)
Method: aptamer microarray, sandwich
Molecule type: DNA with 2'F-ANA
Matrix: in vitro
Concentration: 200 nM
Setting: whole 15-mer aptamer, many near background
Added: Cy3 exosite-II aptamer, 400 nM
Reading: higher = stronger binding
Endpoint: mean fluorescence intensity
Sequence: GGTTGGTGTGGTTGG
2'F-ANA at 2 3 8 13 14: 416 a.u.
2'F-ANA at 1 5 7 10 11 12 13 14: 47 a.u.
2'F-ANA at 6 8 9 10 13 15: 133 a.u.
2'F-ANA at 3 5 8 9 13 15: 133 a.u.
2'F-ANA at 2 3 5 6 7 8 9 10 11 15: 55.4 a.u.
2'F-ANA at 1 2 3 5 6 8 9 10 11 13 14 15: 49.8 a.u.
2'F-ANA at 1 2 3 7 8 9 11 13 14: 70 a.u.
2'F-ANA at 2 10 12 14: 97.3 a.u.
2'F-ANA at 4 7 8 10 11 14 15: 94.1 a.u.
2'F-ANA at 3 4 6 8 9 10: 247 a.u.
2'F-ANA at 1 3 4 5 6 7 8 11 13 14: 48.5 a.u.
2'F-ANA at 1 2 3 5 10 12 13 15: 45.5 a.u.
2'F-ANA at 1 4 7 8 9 10 13 15: 52.1 a.u.
2'F-ANA at 2 5 6 8 10 11 12 13 14: 47.3 a.u.
2'F-ANA at 1 4 5 6 7 8 10 13 15: 46.7 a.u.
2'F-ANA at 1 2 3 5 10 15: 88.7 a.u.
2'F-ANA at 3 4 9 13 14 15: 282 a.u.
2'F-ANA at 5 8 9 12 15: 196 a.u.
2'F-ANA at 1 3 4 6 13 15: 136 a.u.
2'F-ANA at 4 6 8 10 11 13 14: 56.1 a.u.
2'F-ANA at 2 5 6 7 8 12 13 14 15: 48.7 a.u.

Some of these lines once more (series 1):
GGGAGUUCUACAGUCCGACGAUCUAAAUCCUGUGCCAGCACUUCGCUCAUAAAGUUUUAAAUUCUGGACCAAUAGUGUUUGUUUCCUGAUUAUUGUAUCCAAUACUUUGCGUACUAUGUGACUCACUCUUACUGAUAAUAAAACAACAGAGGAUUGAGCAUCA: 0.728 ratio
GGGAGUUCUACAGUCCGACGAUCAGAAUCUUGGGACUGUUUUGCUUGAUUGGUCAUUGAUAGCUUAACAAACAUGGAGAUAAGAUUAGAAAUCUUGACAUCAACAGGUAUUAAGCAGAAAAAACCCUGGCCACGUGUCUCCUGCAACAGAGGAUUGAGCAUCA: 0.157 ratio
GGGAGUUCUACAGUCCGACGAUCUAUAAUAAUCAUGAAAUUCGUUCUGGAAAGCACAUUGGUGUCUGCAUCUCAGUUGCCAACAAUAGGCUUUUUGUGGGCUCGAUUCCUAAGAGUAAAACCAAGGAACAGAUUCUUGAGGAACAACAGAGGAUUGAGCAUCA: 0.602 ratio
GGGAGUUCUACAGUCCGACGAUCCUGUGACCACAAGAUCCUACCUGAGUGUUCAGAUGGGUUGACUCCCUCUCCUUGCCUGAACCCCCCCCCACUGCCCCCCCAUCCCCCAGUGUCGGCUAUUCUCUGGUCUCUGCACGGUUCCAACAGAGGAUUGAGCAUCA: 1.32 ratio
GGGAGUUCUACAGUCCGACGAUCCUCAGAGACGUGGCAUAUCAGUAUGUGAAAAAGGGGGCUCGUAUAUUUGUGGAAGGGAAAAUAGACUAUGGCGAGUACAUGGAUAAAAACAAUGUGAGGCGGCAAGCAACAACAAUCAUACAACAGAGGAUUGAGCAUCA: 0.525 ratio
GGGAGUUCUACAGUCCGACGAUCGAAACAUUUAAAUUUAAAGAAGCUGUUGUUUUAGGGAGUACGGACUUUCUAGAAGAUGAUAUAGAAAAAAUUGUAGAAGAACUGGGGAAAGAGUAUAAGGGCAACGCCUACCAUCUGAUGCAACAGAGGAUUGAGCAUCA: 3.42 ratio
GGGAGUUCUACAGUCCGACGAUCGGCUGCUGGUGACUGUCCUGGAGUGGCUGGAGUUCCCGCCGGAGCGCGCGCAGGUUAAUUUUAGAAAAUGCCAAGUAGGAAGUUUGUUGAGGGUGAAGUGGUCAGAGGCCGAUGGCCUGGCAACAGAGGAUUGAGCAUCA: 4.73 ratio
